Results from different studies.
Protocols differ between the studies behind these lines. ± marks the error that the study gave.
AKT1: RAC-alpha serine/threonine-protein kinase (AKT1, Homo sapiens, UniProt P31749)
AKT1 S473D: RAC-alpha serine/threonine-protein kinase (AKT1, Homo sapiens, UniProt P31749, S473D)

SMILES = CC(C)=CC1OC(C)(C)C2C=C3C(=O)C(Cl)=CC(O)C3C3C(O)C4OC4C(=O)C132 (centres unmarked); target = AKT1; assay = cell-free assay, competition with immobilised ligand; conditions = 10 µM; quantity = remaining binding; result = 100%
SMILES = C=CC(=O)N1CCCC(n2c(=O)c3ncccc3n(Cc3ccc(Oc4ccccc4)cc3)c2=O)C1 (centres unmarked); target = AKT1; assay = cell-free assay, competition with immobilised ligand; conditions = 1 µM; quantity = remaining binding; result = 96%
SMILES = CN1CCN(Cc2ccc(NC(=O)c3cccc(C#Cc4cnc(N)c5ncccc45)c3)cc2C(F)(F)F)CC1; target = AKT1; assay = cell-free assay, competition with immobilised ligand; conditions = 50 nM; quantity = remaining binding; result = 97%
SMILES = O=C=[N][Ru-4]123([n]4c5ccc(O)cc5c5c6c(c7cc(F)c[n+]1c7c54)C(=O)NC6=O)[S+]1CC[S+]2CC[S+]3CC1 (centres unmarked); target = AKT1; assay = enzyme activity; conditions = 100 nM, human enzyme, with: 10 µM ATP; how to read = relative to: untreated; quantity = remaining activity; result = 76%
SMILES = C=CC(=O)Nc1cc(-c2nn(C3CCN(CCNC(=O)[C@H](C)CCC45CC6CC(CC(C6)C4)C5)CC3)c3ncnc(N)c23)ccc1Oc1ccccc1; target = AKT1; assay = inhibitor, KiNativ profiling; system = biochemical; conditions = 2 µM; quantity = inhibition; result = 10.1%
SMILES = C=CC(=O)Nc1cccc(-c2cnc3[nH]cc(C(=O)NC(C)(C)C)c3n2)c1; target = AKT1; assay = enzyme activity, inhibitor; conditions = 0.1 µM; quantity = inhibition; result = 0%
SMILES = CS(=O)(=O)Nc1cccc(-c2csc3cnc(Nc4ccc(N5CCN(CCCCCOc6cccc7c6C(=O)N(C6CCC(=O)NC6=O)C7=O)CC5)cc4)nc23)c1 (centres unmarked); target = AKT1; assay = probe labelling, inhibitor, KiNativ chemoproteomics; system = MOLT-4; conditions = 1 µM; quantity = inhibition; result = -0.834%
SMILES = Cc1cccc(O[C@H]2CCC[C@@H](C(C)CNCc3ccncc3)C2)c1 (relative stereo); target = AKT1; assay = enzyme activity, inhibitor; conditions = 10 µM; quantity = inhibition; result = -4%
SMILES = Cc1cccc(-c2ccc3nc(NC(=O)C4CCCO4)nn3c2)c1 (centres unmarked); target = AKT1 S473D; assay = enzyme activity; conditions = 10 µM; quantity = remaining activity; result = 93%
SMILES = Nc1nc(Nc2ccccc2)sc1C(=O)c1ccccc1; target = AKT1; assay = enzyme activity, inhibitor; conditions = 10 µM; quantity = remaining activity; result = 89%
SMILES = Cc1ccc(C)c(-c2ccc3nc(NC(=O)C4CCCCC4)nn3c2)c1; target = AKT1 S473D; assay = enzyme activity; conditions = 10 µM; quantity = remaining activity; result = 98%
SMILES = Nc1ncc2c(n1)-c1c([nH]c3ccc(C4=CCOCC4)cc13)CCC2; target = AKT1; assay = binding, competition with immobilised ligand; conditions = 1 µM; quantity = remaining binding; result = 100%
SMILES = O=c1c(-c2ccc(Cl)c(CN3CCOCC3)c2)coc2cc(O)ccc12; target = AKT1; assay = enzyme activity, inhibitor; conditions = 1 µM; quantity = remaining activity; result = 122%
SMILES = O=C(Cc1ccc(OCc2ccccc2)cc1)NC1(C(=O)O)CCN(C(=O)c2ccc(-c3cccc(Cl)c3)cc2)CC1; target = AKT1; assay = enzyme activity, inhibitor; conditions = 10 µM; quantity = activity vs control; result = 111%
SMILES = C[C@H]1CN(C(=O)c2cn(-c3ccnc(N)n3)c3cc(C#CC4(O)CCCCC4)ccc23)CCN1; target = AKT1; assay = enzyme activity, inhibitor, FRET; conditions = 1 µM; quantity = inhibition; result = 11%
SMILES = O=[N+]([O-])c1ccc(Cn2cc(Cn3cc(CO)nn3)nn2)cc1; target = RAC-alpha serine/threonine-protein kinase, PH domain (AKT1, Homo sapiens, UniProt P31749); assay = PIP3 binding to PH domain, SPR; conditions = 50 µM; quantity = inhibition; result = 52 ± 5%
SMILES = COc1ccc(O)cc1-c1c[nH]c2ncc(-c3cncc(C(=O)N(C)C)c3)cc12; target = AKT1; assay = binding, competition with immobilised ligand; conditions = 0.2 µM; quantity = inhibition; result = -1.36%
SMILES = NC(=O)[C@@H](O)C[C@H]1CCc2sc3ncnc(O[C@H]4CC[C@H](N5CCOCC5)CC4)c3c21; target = AKT1; assay = enzyme activity, inhibitor; conditions = 10 µM; quantity = inhibition; result = -1%
SMILES = COc1ccc(NC(=O)Nc2ccc3c(c2)C(=O)N(C(C)CO)CC(C)C(CN(C)Cc2ccc4c(c2)OCO4)O3)cc1 (centres unmarked); target = AKT1; assay = kinase activity, KinaseProfiler; conditions = 0.03 µM, species human; how to read = relative to: control; quantity = remaining activity; result = 87%
SMILES = Cc1nc2c(F)cc(-c3nc(Nc4ccc(CNC(=O)CCCCCCC(=O)NO)cc4)ncc3F)cc2n1C(C)C; target = AKT1; assay = enzyme activity, inhibitor; conditions = 1 µM; quantity = inhibition; result = 30%
SMILES = C=CC(=O)N1Cc2nc(-c3cc(-c4cc(Cl)cnc4Cl)c(F)cc3F)n(-c3ccncn3)c2C1; target = AKT1; assay = cell-free assay, inhibitor; conditions = 1 µM; quantity = inhibition; result = -7.3%
SMILES = Cc1ccc(-c2c(/C=C(\C#N)C(=O)NC(C)C)n(CCCO)c3ncnc(N)c23)cc1; target = AKT1; assay = cell-free assay, competition with immobilised ligand; conditions = 1 µM; quantity = remaining binding; result = 100%
SMILES = Cc1cnc2nc1Nc1cccc(c1)COC/C=C/COCc1cc(ccc1OCCN1CCOCC1)N2; target = AKT1; assay = binding; conditions = 0.1 µM; quantity = remaining binding; result = 100%
SMILES = CN1CCN(Cc2ccc(-c3ccc(CO[C@H]4CCC[C@@H]4NC(=O)c4cc(-c5cnn(C)c5)cnc4N)cc3)cc2)CC1; target = AKT1; assay = enzyme activity, inhibitor; conditions = 0.1 µM; quantity = inhibition; result = 0%
SMILES = COc1cc(Nc2nccc(-c3cnn4nc(OC)ccc34)n2)cc(C(F)(F)F)c1; target = AKT1; assay = binding, competition with immobilised ligand; conditions = 1 µM; quantity = remaining binding; result = 100%
SMILES = CNC(=O)C[C@H](Cc1ccc(C#N)cc1)NC(=O)c1cc(-c2ccc(CN[C@H](C)c3ccc(C)cc3)o2)ccc1Cl; target = AKT1; assay = enzyme activity, inhibitor; conditions = 1 µM; quantity = activity vs control; result = 69%

Repeated from above:
SMILES = Cc1cccc(O[C@H]2CCC[C@@H](C(C)CNCc3ccncc3)C2)c1 (relative stereo); target = AKT1; assay = enzyme activity, inhibitor; conditions = 10 µM; quantity = inhibition; result = -4%
SMILES = Cc1cccc(-c2ccc3nc(NC(=O)C4CCCO4)nn3c2)c1 (centres unmarked); target = AKT1 S473D; assay = enzyme activity; conditions = 10 µM; quantity = remaining activity; result = 93%
SMILES = Nc1nc(Nc2ccccc2)sc1C(=O)c1ccccc1; target = AKT1; assay = enzyme activity, inhibitor; conditions = 10 µM; quantity = remaining activity; result = 89%
